Measurements pooled from the literature.
Protocols differ between the studies behind these lines. ± marks the error that the study gave.

Compound | assay | test system | conditions | scale | measurement | result
N=C(N)NCCC[C@@H]1NC(=O)[C@H](CCCCNC(=O)CC[C@H](NC(=O)CC[C@H](NC(=O)CN2CCN(CC(=O)O)CCN(CC(=O)O)CCN(CC(=O)O)CC2)C(=O)N[C@@H](CCC(=O)NCCCC[C@@H]2NC(=O)[C@@H](Cc3ccccc3)NC(=O)[C@H](CC(=O)O)NC(=O)CNC(=O)[C@H](CCCNC(=N)N)NC2=O)C(=O)NCCCC[C@@H]2NC(=O)[C@@H](Cc3ccccc3)NC(=O)[C@H](CC(=O)O)NC(=O)CNC(=O)[C@H](CCCNC(=N)N)NC2=O)C(=O)NCCCC[C@@H]2NC(=O)[C@@H](Cc3ccccc3)NC(=O)[C@H](CC(=O)O)NC(=O)CNC(=O)[C@H](CCCNC(=N)N)NC2=O)NC(=O)[C@@H](Cc2ccccc2)NC(=O)[C@H](CC(=O)O)NC(=O)CNC1=O [indium-111 labelled] |  | female athymic nu/nu mice, bone | intravenous, 0.5 h |  | tissue uptake | 1.64 ± 0.17 %ID/g
CC(C)C[C@H](NC(=O)C[C@H](O)[C@H](CC(C)C)NC(=O)[C@H](Cc1c[nH]cn1)NC(=O)CNC(=O)[C@@H](NC(=O)[C@H](C)NC(=O)[C@H](Cc1c[nH]c2ccccc12)NC(=O)[C@H](CCC(N)=O)NC(=O)[C@@H](Cc1ccccc1)NC(=O)CCOCCOCCOCCNC(=O)CN1CCN(CC(=O)O)CCN(CC(=O)O)CC1)C(C)C)C(N)=O [gallium-68 labelled] | microPET imaging | mouse PC-3 xenograft, PC-3 tumour | intravenous, 3.7 MBq, 15 min |  | maximum tumour uptake | 4.96 ± 0.87 %ID/g
CCCC[C@H](NC(=O)CNC(=O)CNC(=O)CN1CCN(CC(=O)O)CCN(CC(=O)O)CC1)C(=O)N[C@H]1CC(=O)NCCCC[C@@H](C(N)=O)NC(=O)[C@H](Cc2c[nH]c3ccccc23)NC(=O)[C@H](CCCNC(=N)N)NC(=O)[C@@H](Cc2ccccc2)NC(=O)[C@H](Cc2c[nH]cn2)NC1=O [technetium-99m labelled] |  | C57 mouse, lung | iv, 0.037 MBq, 4 h |  | tissue uptake | 0.18 ± 0.05 %ID/g
CCn1cc(C(=O)NCCCCCC(=O)N[C@@H](CCCNC(=N)N)C(=O)N[C@@H](CC(C)C)C(=O)N[C@@H](CC(C)C)C(=O)N[C@@H](CCCNC(=N)N)C(N)=O)c(=O)c2cc3c(cc21)OCO3 | RP-HPLC, C18 column |  |  | higher is more hydrophobic | retention time | 6 min
CCCC[C@H](NC(=O)COCCOCCNC(=O)CN1CCN(CC(=O)O)CCN(CC(=O)O)CC1)C(=O)N[C@H]1CC(=O)NCCCC[C@@H](C(N)=O)NC(=O)[C@H](Cc2c[nH]c3ccccc23)NC(=O)[C@H](CCCNC(=N)N)NC(=O)[C@@H](Cc2ccccc2)NC(=O)[C@H](Cc2c[nH]cn2)NC1=O [copper-64 labelled] |  | C57 mice, muscle | intravenous, 0.37 MBq, 2 h |  | tissue uptake | 0.08 ± 0.06 %ID/g
CCn1cc(C(=O)NCCCCCC(=O)N[C@@H](CCCNC(=N)N)C(=O)N[C@@H](Cc2c[nH]c3ccccc23)C(=O)N[C@@H](CCC(N)=O)C(=O)N[C@@H](Cc2c[nH]c3ccccc23)C(=O)N[C@@H](CCCNC(=N)N)C(=O)N[C@@H](Cc2c[nH]c3ccccc23)C(=O)N[C@@H](CCC(N)=O)C(=O)N[C@@H](Cc2c[nH]c3ccccc23)C(=O)N[C@@H](CCCNC(=N)N)C(N)=O)c(=O)c2cc3c(cc21)OCO3 | RP-HPLC, C18 column |  |  | higher is more hydrophobic | retention time | 6.9 min
N=C(N)NCCC[C@@H]1NC(=O)[C@H](CCCCNC(=O)CNC(=O)CNC(=O)CNC(=O)CC[C@H](NC(=O)CNC(=O)CNC(=O)CNC(=O)CN2CCN(CC(=O)O)CCN(CC(=O)O)CCN(CC(=O)O)CC2)C(=O)NCC(=O)NCC(=O)NCC(=O)NCCCC[C@@H]2NC(=O)[C@@H](Cc3ccccc3)NC(=O)[C@H](CC(=O)O)NC(=O)CNC(=O)[C@H](CCCNC(=N)N)NC2=O)NC(=O)[C@@H](Cc2ccccc2)NC(=O)[C@H](CC(=O)O)NC(=O)CNC1=O [copper-64 labelled] |  | athymic nu/nu mouse, female, liver | intravenous, 4 h |  | tissue uptake | 3.62 ± 0.62 %ID/g
CC(C)C[C@H](NC(=O)[C@H](CC(C)C)NC(=O)[C@H](CCCNC(=N)N)NC(=O)[C@H](CCCNC(=N)N)NC(=O)[C@H](CC(C)C)NC(=O)[C@H](CC(C)C)NC(=O)[C@H](CCCNC(=N)N)NC(=O)CCCCCNC(=O)/C=C/c1ccc(O)c(O)c1)C(=O)N[C@@H](CCCNC(=N)N)C(N)=O | RP-HPLC, C18 column |  |  | higher is more hydrophobic | retention time | 6.4 min
CCCC[C@H](NC(=O)CNC(=O)CNC(=O)CN1CCN(CC(=O)O)CCN(CC(=O)O)CCN(CC(=O)O)CC1)C(=O)N[C@H]1CC(=O)NCCCC[C@@H](C(N)=O)NC(=O)[C@H](Cc2c[nH]c3ccccc23)NC(=O)[C@H](CCCNC(=N)N)NC(=O)[C@@H](Cc2ccccc2)NC(=O)[C@H](Cc2c[nH]cn2)NC1=O [lutetium-177 labelled] |  | C57 mouse, female, kidneys | intravenous, 0.037 MBq, 24 h |  | tissue uptake | 4.75 ± 1.03 %ID/g
C=C1CC[C@H](OCCCNC(=O)CCOCCOCCOCCOCCOCCOCCOCCOCCOCCOCCOCCOCCOCCOCCOCCOCCOCCOCCOCCOCCOCCOCCOCCOCCOCCOCCOCCOCCOCCOCCOCCOCCOCCOCCOCCOCCNC(=O)CCN2C(=O)CC(SC[C@H](NC(=O)[C@H](Cc3ccccc3)NC(=O)[C@H](CC(N)=O)NC(=O)[C@H](Cc3c[nH]cn3)NC(=O)[C@@H](NC(=O)[C@H](CC(=O)O)NC(=O)[C@H](CCC(N)=O)NC(=O)[C@H](CC(C)C)NC(=O)[C@H](CCCCN)NC(=O)[C@H](CCCCN)NC(=O)[C@H](CCCNC(=N)N)NC(=O)[C@H](CC(C)C)NC(=O)[C@H](Cc3c[nH]c4ccccc34)NC(=O)[C@H](CCC(=O)O)NC(=O)[C@@H](NC(=O)[C@H](CCCNC(=N)N)NC(=O)[C@H](CCC(=O)O)NC(=O)[C@H](CCSC)NC(=O)[C@H](CO)NC(=O)[C@H](CC(N)=O)NC(=O)[C@H](CC(C)C)NC(=O)[C@H](Cc3c[nH]cn3)NC(=O)[C@H](CCCCN)NC(=O)CNC(=O)[C@H](CC(C)C)NC(=O)[C@H](CC(N)=O)NC(=O)[C@H](Cc3c[nH]cn3)NC(=O)[C@H](CCSC)NC(=O)[C@H](CC(C)C)NC(=O)[C@H](CCC(N)=O)NC(=O)[C@@H](NC(=O)[C@H](CCC(=O)O)NC(=O)[C@H](CO)NC(=O)[C@@H](NC(=O)[C@@H](N)CO)C(C)C)[C@@H](C)CC)C(C)C)C(C)C)C(N)=O)C2=O)C/C1=C/C=C1\CCC[C@]2(C)[C@@H]([C@H](C)CCCC(C)(C)O)CC[C@@H]12 (stereo partly drawn) |  | Sprague Dawley rat | subcutaneous, 10 µg/kg daily, 89 days | relative to: 1 µg/kg dose | dose-normalized AUC | 0.92
CCCC[C@H](NC(=O)CCCCCCCNC(=O)CN1CCN(CC(=O)O)CCN(CC(=O)O)CC1)C(=O)N[C@H]1CC(=O)NCCCC[C@@H](C(N)=O)NC(=O)[C@H](Cc2c[nH]c3ccccc23)NC(=O)[C@H](CCCNC(=N)N)NC(=O)[C@@H](Cc2ccccc2)NC(=O)[C@H](Cc2c[nH]cn2)NC1=O [copper-64 labelled] |  | C57 mice, skin | intravenous, 0.37 MBq, 24 h |  | tissue uptake | 0.02 ± 0.02 %ID/g
N=C(N)NCCC[C@@H]1NC(=O)[C@H](CCCCNC(=O)CCC(C(=O)O)N2CCCN3CCN(CCCN(CC(=O)O)CC3)CC2)NC(=O)[C@@H](Cc2ccc(O)cc2)NC(=O)[C@H](CC(=O)O)NC(=O)CNC1=O (stereo partly drawn) [copper-64 labelled] |  | SCID mouse, PC-3 xenograft, tumour | iv, dose not given, 4 h |  | tumour uptake | 1.85 ± 0.26 %ID/g

For quick reference, copied from above:
Compound | assay | test system | conditions | scale | measurement | result
CCCC[C@H](NC(=O)CNC(=O)CNC(=O)CN1CCN(CC(=O)O)CCN(CC(=O)O)CC1)C(=O)N[C@H]1CC(=O)NCCCC[C@@H](C(N)=O)NC(=O)[C@H](Cc2c[nH]c3ccccc23)NC(=O)[C@H](CCCNC(=N)N)NC(=O)[C@@H](Cc2ccccc2)NC(=O)[C@H](Cc2c[nH]cn2)NC1=O [technetium-99m labelled] |  | C57 mouse, lung | iv, 0.037 MBq, 4 h |  | tissue uptake | 0.18 ± 0.05 %ID/g
